Experimental data gathered from unrelated publications.
Each numbered part is a random draw from the data of one study; scales do not carry over between parts.

Block 1
Target: Sal-like protein 4, full length isoform A (SALL4, Homo sapiens, UniProt Q9UJQ4, residues 1-1053)
Sequence of UniProt Q9UJQ4 (whole entry, looked up): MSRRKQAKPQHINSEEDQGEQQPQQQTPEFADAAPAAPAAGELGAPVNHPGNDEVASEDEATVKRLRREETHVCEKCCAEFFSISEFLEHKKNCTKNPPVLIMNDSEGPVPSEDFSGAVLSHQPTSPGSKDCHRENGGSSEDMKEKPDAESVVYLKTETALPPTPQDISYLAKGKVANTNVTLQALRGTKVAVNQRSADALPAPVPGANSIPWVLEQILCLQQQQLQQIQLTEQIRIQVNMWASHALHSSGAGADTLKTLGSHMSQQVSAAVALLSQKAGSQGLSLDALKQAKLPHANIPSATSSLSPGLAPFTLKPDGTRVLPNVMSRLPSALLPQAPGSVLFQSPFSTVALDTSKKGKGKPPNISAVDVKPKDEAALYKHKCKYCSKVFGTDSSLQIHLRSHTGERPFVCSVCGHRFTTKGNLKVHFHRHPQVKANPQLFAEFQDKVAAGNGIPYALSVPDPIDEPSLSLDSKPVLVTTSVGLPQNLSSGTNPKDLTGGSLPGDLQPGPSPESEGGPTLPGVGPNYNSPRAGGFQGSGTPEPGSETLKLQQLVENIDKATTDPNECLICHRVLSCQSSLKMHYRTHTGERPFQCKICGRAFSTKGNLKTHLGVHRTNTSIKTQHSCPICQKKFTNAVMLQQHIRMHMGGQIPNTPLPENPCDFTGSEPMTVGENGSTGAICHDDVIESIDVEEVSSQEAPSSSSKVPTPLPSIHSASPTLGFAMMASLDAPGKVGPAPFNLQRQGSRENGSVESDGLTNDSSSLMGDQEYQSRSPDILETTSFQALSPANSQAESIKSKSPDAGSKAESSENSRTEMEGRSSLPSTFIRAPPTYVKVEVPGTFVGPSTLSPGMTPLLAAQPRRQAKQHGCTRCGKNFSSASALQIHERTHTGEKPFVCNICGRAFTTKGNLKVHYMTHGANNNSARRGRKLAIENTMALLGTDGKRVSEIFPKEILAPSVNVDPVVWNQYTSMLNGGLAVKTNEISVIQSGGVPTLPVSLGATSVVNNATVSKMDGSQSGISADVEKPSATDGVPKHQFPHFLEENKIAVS
Method: universal PBM
Form: double-stranded DNA, one strand shown
Sample: in vitro
Concentration: 600 nM
Setting: 8-mer, flanks averaged, mean of replicates
Reading: higher = stronger binding
Oligonucleotide | E-score
AAGTTGTG | 0.159
TGGTACAA | 0.183
GCGGTGAA | -0.142
AATCTAGG | 0.147
GGATGTTA | -0.014
AGCAGAGG | -0.0907
AAATCCGC | -0.205

Block 2
Target: PABPC1L2, full length, GST fusion (mouse, UniProt A0ABA7IW68)
Method: RNAcompete
Form: RNA
Sample: in vitro
Concentration: 20 nM
Setting: 7-mer, probes averaged, single round
Baseline: mean of 7-mers
Reading: higher = stronger binding
Construct (chain): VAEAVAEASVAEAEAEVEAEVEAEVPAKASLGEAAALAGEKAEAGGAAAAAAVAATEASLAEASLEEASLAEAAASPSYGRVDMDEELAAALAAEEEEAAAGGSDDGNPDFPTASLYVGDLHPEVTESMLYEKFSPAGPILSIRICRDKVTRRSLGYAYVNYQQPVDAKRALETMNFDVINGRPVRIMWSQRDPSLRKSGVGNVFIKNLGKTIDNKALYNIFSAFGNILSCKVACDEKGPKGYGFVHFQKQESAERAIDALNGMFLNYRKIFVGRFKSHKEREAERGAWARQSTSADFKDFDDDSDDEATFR
Oligonucleotide | 7-mer Z-score
AGGCAGC | 0.162
GGAGGCU | 0.175
CUACCGG | -0.26
UGCACAA | 0.0768
AUGGCUC | -0.179
GUCAGGA | 0.182
GGUCAGA | 0.233

Block 3
Target: Histone acetyltransferase KAT6A, both winged helices, GST fusion (KAT6A, Homo sapiens, UniProt Q92794, residues 1-181)
Method: protein binding microarray
Form: double-stranded DNA, one strand shown
Sample: in vitro
Concentration: not given
Setting: 8-mer, flanks averaged, mean of 2 arrays, mostly near background
Baseline: not given
Reading: higher = stronger binding
Target sequence (chain): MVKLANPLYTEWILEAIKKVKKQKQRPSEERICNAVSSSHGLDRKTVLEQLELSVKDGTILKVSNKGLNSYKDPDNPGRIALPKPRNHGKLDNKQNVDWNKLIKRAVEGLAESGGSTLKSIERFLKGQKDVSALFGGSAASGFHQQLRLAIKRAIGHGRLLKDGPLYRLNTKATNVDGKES
Oligonucleotide | E-score
ACCTGGAA | -0.112
ACCTGAAA | 0.0017
GGCTGGCA | -0.0771
ACCGTTCG | 0.0368
ACTAATGG | -0.165
GAGGGTCC | -0.106

Single results of other studies
Molecule | target | test | system | conditions | how to read | quantity | value
PhoQ, residues 284 288 289 292 302 303 ALSMDL | PhoP, residues 12 14 15 18 19 TQAIL (Escherichia coli, UniProt P23836) | Sort-seq, refers to: YFP reporter | E. coli | PhoQ-PhoP variant library, with: 10 µM Mg2+ | baseline: high Mg2+ state, higher = stronger signaling | fold induction | 9.08

For quick reference, copied from above (single results of other studies):
Molecule | target | test | system | conditions | how to read | quantity | value
PhoQ, residues 284 288 289 292 302 303 ALSMDL | PhoP, residues 12 14 15 18 19 TQAIL (Escherichia coli, UniProt P23836) | Sort-seq, refers to: YFP reporter | E. coli | PhoQ-PhoP variant library, with: 10 µM Mg2+ | baseline: high Mg2+ state, higher = stronger signaling | fold induction | 9.08
